Results pooled from the literature.
Compare with care: the assays were run in different laboratories. Values joined by “and” are separate records of one study, mostly repeats; a detail may differ. Numbers after ± are the reported error.
DESI1: Desumoylating isopeptidase 1 (DESI1, Homo sapiens, UniProt Q6ICB0)
Chain of UniProt Q6ICB0 (whole entry, looked up): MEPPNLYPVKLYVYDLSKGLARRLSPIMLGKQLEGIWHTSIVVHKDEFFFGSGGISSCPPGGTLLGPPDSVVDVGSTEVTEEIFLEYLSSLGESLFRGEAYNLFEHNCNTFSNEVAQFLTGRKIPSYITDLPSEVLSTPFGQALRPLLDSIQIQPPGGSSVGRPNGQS
CASP8: Caspase-8 (CASP8, Homo sapiens, UniProt Q14790)
Chain of UniProt Q14790 (whole entry, looked up): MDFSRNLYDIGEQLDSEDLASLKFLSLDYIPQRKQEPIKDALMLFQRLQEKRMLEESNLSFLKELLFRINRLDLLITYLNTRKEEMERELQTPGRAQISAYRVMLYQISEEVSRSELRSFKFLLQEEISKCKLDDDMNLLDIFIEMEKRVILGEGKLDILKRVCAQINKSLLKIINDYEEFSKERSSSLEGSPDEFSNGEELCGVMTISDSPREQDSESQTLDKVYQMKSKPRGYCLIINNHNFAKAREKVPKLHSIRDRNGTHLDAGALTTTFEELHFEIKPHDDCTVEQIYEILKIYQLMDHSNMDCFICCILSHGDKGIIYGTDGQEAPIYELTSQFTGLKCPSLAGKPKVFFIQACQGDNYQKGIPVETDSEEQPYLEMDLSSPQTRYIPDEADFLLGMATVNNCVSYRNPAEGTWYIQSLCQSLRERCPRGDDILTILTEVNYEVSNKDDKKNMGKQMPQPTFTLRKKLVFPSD
DCPS: m7GpppX diphosphatase (DCPS, Homo sapiens, UniProt Q96C86)
Chain of UniProt Q96C86 (whole entry, looked up): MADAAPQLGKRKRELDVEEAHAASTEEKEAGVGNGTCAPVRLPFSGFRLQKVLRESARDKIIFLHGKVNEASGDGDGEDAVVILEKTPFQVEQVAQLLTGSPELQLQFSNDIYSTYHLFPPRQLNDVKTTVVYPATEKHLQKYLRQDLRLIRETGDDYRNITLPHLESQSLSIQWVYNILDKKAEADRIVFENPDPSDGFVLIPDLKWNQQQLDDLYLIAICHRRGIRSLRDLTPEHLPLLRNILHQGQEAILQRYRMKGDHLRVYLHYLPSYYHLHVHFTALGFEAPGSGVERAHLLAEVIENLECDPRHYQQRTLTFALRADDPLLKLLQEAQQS
MAPK1: Mitogen-activated protein kinase 1 (MAPK1, Homo sapiens, UniProt P28482)
Chain of UniProt P28482 (whole entry, looked up): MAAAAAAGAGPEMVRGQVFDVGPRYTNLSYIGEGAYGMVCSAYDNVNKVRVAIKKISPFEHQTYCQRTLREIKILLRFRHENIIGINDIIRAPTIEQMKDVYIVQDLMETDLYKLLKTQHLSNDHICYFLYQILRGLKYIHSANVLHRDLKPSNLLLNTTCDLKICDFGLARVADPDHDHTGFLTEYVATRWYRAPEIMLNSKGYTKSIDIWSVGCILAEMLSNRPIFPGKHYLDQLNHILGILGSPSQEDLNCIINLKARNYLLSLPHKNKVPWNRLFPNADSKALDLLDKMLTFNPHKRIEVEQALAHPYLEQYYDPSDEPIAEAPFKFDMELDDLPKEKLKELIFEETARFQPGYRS
HSD3B1: 3 beta-hydroxysteroid dehydrogenase/Delta 5-->4-isomerase type 1 (HSD3B1, Homo sapiens, UniProt P14060)
Chain of UniProt P14060 (whole entry, looked up): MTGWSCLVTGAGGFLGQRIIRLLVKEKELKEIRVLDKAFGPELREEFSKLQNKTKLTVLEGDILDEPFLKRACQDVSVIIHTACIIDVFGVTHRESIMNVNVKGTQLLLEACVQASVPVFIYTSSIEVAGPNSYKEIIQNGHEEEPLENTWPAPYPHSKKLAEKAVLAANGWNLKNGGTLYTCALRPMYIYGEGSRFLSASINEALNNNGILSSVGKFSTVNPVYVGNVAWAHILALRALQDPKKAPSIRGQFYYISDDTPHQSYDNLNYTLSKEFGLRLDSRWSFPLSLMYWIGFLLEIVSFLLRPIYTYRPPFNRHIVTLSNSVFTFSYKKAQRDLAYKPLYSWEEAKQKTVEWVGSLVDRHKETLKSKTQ
CASP10: Caspase-10 (CASP10, Homo sapiens, UniProt Q92851)
Chain of UniProt Q92633 (whole entry, unmodified, looked up): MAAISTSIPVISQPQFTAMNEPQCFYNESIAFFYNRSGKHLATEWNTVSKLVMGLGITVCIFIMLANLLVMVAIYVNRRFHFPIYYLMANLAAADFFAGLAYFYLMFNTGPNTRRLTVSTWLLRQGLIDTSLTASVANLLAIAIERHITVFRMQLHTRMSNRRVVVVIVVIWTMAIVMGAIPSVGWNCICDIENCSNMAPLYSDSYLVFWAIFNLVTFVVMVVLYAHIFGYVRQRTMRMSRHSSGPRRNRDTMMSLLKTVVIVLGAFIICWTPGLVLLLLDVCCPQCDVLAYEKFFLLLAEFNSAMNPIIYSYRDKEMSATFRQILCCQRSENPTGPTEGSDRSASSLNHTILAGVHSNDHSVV
Chain of UniProt P22061 (whole entry, looked up): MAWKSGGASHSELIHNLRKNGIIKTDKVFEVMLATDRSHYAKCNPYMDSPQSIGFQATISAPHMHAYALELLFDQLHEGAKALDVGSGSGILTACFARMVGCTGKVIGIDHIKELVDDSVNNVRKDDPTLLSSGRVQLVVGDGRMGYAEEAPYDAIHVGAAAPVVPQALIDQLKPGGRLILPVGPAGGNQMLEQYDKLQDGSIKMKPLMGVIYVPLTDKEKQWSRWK
Chain of UniProt Q13148 (whole entry, looked up): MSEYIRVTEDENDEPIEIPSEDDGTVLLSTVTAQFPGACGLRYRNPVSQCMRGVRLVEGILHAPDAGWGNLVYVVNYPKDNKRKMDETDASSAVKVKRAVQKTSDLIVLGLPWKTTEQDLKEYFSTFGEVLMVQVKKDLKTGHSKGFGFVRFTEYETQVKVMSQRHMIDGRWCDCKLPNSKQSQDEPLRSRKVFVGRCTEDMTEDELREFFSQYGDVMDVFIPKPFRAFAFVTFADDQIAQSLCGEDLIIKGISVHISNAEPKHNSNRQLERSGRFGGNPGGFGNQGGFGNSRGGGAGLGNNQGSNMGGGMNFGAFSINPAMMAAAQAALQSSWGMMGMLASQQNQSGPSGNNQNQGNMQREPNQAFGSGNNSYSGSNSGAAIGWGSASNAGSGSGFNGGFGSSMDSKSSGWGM
Chain of UniProt P54577 (whole entry, looked up): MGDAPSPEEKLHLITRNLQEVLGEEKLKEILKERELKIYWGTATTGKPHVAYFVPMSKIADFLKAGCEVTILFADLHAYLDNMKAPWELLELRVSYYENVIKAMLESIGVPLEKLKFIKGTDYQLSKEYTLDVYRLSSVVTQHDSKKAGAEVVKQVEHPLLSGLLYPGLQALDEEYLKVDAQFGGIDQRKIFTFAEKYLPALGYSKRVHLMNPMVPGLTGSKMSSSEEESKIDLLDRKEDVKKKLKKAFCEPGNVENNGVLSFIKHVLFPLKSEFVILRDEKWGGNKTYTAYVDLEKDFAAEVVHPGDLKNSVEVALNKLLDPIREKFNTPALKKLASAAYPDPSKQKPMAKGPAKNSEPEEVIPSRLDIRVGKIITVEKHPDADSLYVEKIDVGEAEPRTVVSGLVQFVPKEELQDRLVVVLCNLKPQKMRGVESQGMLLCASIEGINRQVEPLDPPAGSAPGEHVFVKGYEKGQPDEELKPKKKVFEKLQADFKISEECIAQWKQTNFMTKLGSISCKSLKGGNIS
Chain of UniProt Q92851 (whole entry, looked up): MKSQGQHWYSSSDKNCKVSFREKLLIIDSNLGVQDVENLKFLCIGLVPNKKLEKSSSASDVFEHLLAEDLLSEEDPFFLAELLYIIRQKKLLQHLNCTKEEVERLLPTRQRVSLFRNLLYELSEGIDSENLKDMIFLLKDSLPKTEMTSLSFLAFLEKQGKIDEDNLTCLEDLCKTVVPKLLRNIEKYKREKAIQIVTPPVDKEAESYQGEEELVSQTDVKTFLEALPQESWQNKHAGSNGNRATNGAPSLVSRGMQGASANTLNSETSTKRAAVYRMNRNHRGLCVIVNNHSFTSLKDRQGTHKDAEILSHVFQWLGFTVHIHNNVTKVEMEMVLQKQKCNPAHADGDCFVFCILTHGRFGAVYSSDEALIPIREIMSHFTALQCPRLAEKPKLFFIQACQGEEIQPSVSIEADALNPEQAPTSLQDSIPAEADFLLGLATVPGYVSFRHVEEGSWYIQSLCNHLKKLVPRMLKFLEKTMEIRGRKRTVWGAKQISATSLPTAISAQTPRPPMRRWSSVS
Chain of UniProt P35821 (whole entry, looked up): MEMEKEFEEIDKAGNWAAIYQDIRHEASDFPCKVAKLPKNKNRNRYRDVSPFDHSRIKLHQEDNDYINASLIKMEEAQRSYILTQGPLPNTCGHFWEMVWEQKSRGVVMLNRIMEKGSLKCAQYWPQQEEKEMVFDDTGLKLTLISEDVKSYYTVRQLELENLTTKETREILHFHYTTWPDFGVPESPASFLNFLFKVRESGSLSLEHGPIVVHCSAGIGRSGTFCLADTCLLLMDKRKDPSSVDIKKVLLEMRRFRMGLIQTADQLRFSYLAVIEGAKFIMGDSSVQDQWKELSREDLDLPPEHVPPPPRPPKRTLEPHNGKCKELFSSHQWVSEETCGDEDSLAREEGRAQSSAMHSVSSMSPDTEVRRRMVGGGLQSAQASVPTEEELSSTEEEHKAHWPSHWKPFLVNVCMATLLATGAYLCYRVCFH
Chain of UniProt Q9BY41 (whole entry, unmodified, looked up): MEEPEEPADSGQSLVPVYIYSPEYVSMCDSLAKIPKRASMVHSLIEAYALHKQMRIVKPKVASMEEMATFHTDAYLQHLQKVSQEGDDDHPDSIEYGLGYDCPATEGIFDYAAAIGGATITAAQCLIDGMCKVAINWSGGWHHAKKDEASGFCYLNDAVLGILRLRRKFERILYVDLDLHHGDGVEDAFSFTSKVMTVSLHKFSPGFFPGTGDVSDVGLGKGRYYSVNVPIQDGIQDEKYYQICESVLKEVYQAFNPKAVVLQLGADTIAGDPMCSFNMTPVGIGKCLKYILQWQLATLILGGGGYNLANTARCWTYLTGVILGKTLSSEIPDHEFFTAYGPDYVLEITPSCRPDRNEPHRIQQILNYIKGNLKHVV
Chain of UniProt Q9NYV8 (whole entry, looked up): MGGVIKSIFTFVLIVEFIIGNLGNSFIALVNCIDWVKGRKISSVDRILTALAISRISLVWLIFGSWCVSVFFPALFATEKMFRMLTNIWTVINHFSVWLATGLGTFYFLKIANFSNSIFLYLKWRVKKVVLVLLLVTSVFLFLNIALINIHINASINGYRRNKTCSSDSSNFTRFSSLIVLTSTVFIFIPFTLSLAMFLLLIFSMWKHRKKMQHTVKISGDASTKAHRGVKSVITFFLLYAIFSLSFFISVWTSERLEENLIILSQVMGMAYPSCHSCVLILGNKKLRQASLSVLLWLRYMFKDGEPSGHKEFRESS

The ΔTm of `C=CS(=O)(=O)c1ccc(Nc2nc(OCC3CCCCC3)c3nc[nH]c3n2)cc1` is reported as 5.7 °C (Gasdermin-D (GSDMD, Homo sapiens, UniProt P57764); thermal stability, DSF; 10 µM).
`CCCCCC=CC=C1C(=O)C=CC1CC=CCCCC(=O)O` (stereo not drawn) — result for “isoTOP-ABPP competition ratio”: 1.1 (DESI1; competitive isoTOP-ABPP; Ramos soluble proteome; 100 µM, with: iodoacetamide probe; relative to: DMSO over compound-treated, higher = stronger cysteine blockade).
The Hill coefficient of `OCC1OC(n2cnc3c(NCc4ccc(Br)s4)ncnc32)C(O)C1O` (stereo not drawn) is reported as 0.78 (SLC29A1 (Homo sapiens, UniProt Q99808); binding, [3H]NBMPR radioligand binding; U-937 cells).
`CCCCCC(O)/C=C/C=O` (stereo not drawn) — result for “isoTOP-ABPP competition ratio”: 1.8 (DESI1; competitive isoTOP-ABPP; proteome, soluble, MDA-MB-231; 100 µM, with: iodoacetamide probe; relative to: DMSO over compound-treated, higher = stronger cysteine blockade).
`CC(=O)N[C@@H](Cc1c[nH]c2ccccc12)C(=O)N[C@@H](CCC(=O)O)C(=O)N[C@@H](C)C(=O)N[C@@H](CC(=O)O)C(=O)COC(=O)c1c(C)cccc1C` gave a kinact/KI of 1.89e+06 M⁻¹ s⁻¹ (CASP8; enzyme activity, inhibitor).
The ΔTm of `COc1cc(-c2cn(C)c(=O)c3cnccc23)cc(OC)c1CN(C)C` is reported as 0.9 °C (KAT2A (Homo sapiens, UniProt Q92830)).
`C[n+]1cn([C@@H]2O[C@H](COP(=O)([O-])OP(=O)(O)CP(=O)(O)O)[C@@H](O)[C@H]2O)c2nc(N)nc(O)c21` gave a hydrolysis of 0% (DCPS; substrate, HPLC; concentration not given, 120 min).
With `N#CN1CC[C@H](C(=O)Nc2nc3c(s2)CN(C(=O)Cn2cc(CNC(=O)CCCC[C@@H]4SC[C@@H]5NC(=O)N[C@@H]54)nn2)CC3)C1` the iBAQ abundance was 1.74e+08 and 1.55e+08 and 4.17e+08 (PCMT1 (Homo sapiens, UniProt P22061); probe binding, affinity probe, neutravidin pull-down LC-MS/MS; HEK293T, cell lysate; 5 µM, 1 h, single replicate, unit not given; higher = more pulled down).
`C/C(=C/CC[C@@H](C)[C@H]1CC[C@@]2(C)C3=CC[C@H]4C(C)(C)C(=O)CC[C@]4(C)C3=C[C@@H](O[C@@H]3O[C@H](CO)[C@@H](O)[C@H](O)[C@H]3O)[C@]12C)C(=O)O` has a threshold concentration of 1 µM (TAS2R14 (Homo sapiens, UniProt Q9NYV8); agonist, calcium mobilisation; HEK cells with Galpha16gust44; pH 7.4).
With `COC(=O)[C@@]1(C)C=C(C(=O)Nc2cccc(C(=O)Nc3ccc(Nc4nccc(-c5cccnc5)n4)c(C)c3)c2)C(=O)CC1` the remaining activity was 0.926 (MAPK1; kinase activity, inhibitor; 0.5487 µM, unit not given; relative to: no inhibitor).
`O=c1c(-c2ccc(Cl)c(CN3CCOCC3)c2)coc2cc(O)ccc12` has a DHEA metabolism of 2.55 (HSD3B1; [3H]-DHEA conversion; LNCaP; 0.1 µM, normalized to protein, unit not given; relative to: vehicle).
`C=CC(=O)N1CCCC(n2c(=O)c3ncccc3n(Cc3ccc(Oc4ccccc4)cc3)c2=O)C1` (stereo not drawn) gave a melting temperature of 43.2 °C and 48.8 °C (YARS1 (Homo sapiens, UniProt P54577); thermal proteome profiling, refers to: YARS; treated).
The kinact/KI of `CC(=O)N[C@@H](CCC(C)C)C(=O)N[C@H](C(=O)N[C@@H](CO)C(=O)N[C@@H](CC(=O)O)C(=O)COC(=O)c1c(C)cccc1C)C(C)(C)C` is reported as 178000 M⁻¹ s⁻¹ (CASP10; enzyme activity, inhibitor).
`COC[C@@H]([C@H](O)[C@H](O)C(=O)NCC[C@H](C)c1nc(/C=C/C[C@@H]2O[C@]3(C[C@@H](O)[C@@H]2C)O[C@H]([C@H](C[C@H](O)[C@H](C)[C@H](O)[C@H](C)/C=C(C)/C(C)=C/C=C/C(C)=C\C#N)OC)[C@H](OP(=O)(O)OP(=O)(O)O)C3(C)C)co1)N(C)C` gave a Km of 27.4 ± 2.94 µM (native CalL phosphatase; substrate).
For `CC(C=CC=C(C)C=CC1=C(C)CCCC1(C)C)=CC=O`, “Pearson correlation coefficient” read 0.71 (Rhodopsin (RHO, Homo sapiens, UniProt P08100, T17M); ER retention, immunostaining co-localization, refers to: opsin with calnexin; COS-7 transfected T17M; 0.05 µM).
Under “normalized kinase activity”, `C#CCOC(=O)[C@@]1(C)C=C(C(=O)OC(C)(C)C)C(=O)CC1` is recorded as 1.06 (MAPK1; enzyme activity, D-SENSOR; 0.1829 µM, mean of replicates).
`O=C1c2sc(-c3ccc(N4CCC(F)C4)nc3F)nc2CCN1c1cccnc1` (stereo not drawn) has a specific binding of 0.275 nM and 0.172 nM (TAR DNA-binding protein 43, aggregated (TARDBP, Homo sapiens, UniProt Q13148); radioligand binding; human, FTLD-TDP type B sarkosyl-insoluble extract; 3.53 nM).
`CCN(CC)C(CO)c1cccc2c(C)c(C)oc12` (stereo not drawn) gave a fold change of 0.953 and 1.04 and 0.918 and 0.968 and 0.802 and 1.02 (LPAR1 (Homo sapiens, UniProt Q92633, W271A); G-protein dissociation, agonist, NanoBiT; HEK-293T; 100 nM, W271A mutant; relative to: baseline luminescence).
For `[2H]c1c(NS(C)(=O)=O)c([2H])c2c(C(=O)c3ccc(OCCCN(CCCC)CCCC)cc3)c(CCCC)oc2c1[2H]`, the KI was 3.63 ± 1.39 µM (Cytochrome P450 2J2 (CYP2J2, Homo sapiens, UniProt P51589); inactivator; with: astemizole substrate).
The remaining protein of `CC1(C)C[C@@H](Nc2cccc(-c3sc(C(=O)O)c(OCC(=O)O)c3Cl)c2)CCN1S(=O)(=O)Cc1cccc(NC(=O)CN2CCC(c3ccc4c(c3)oc(=O)n4C3CCC(=O)NC3=O)CC2)c1` (stereo partly drawn) is reported as 4.3% and 2.5% (Tyrosine-protein phosphatase non-receptor type 1 (Mus musculus, UniProt P35821); degrader, Western blot; B16-F10; 10 µM).
With `CC[C@H](C)[C@H](NC(=O)[C@@H](NC(=O)[C@H](CCCCN)NC(=O)[C@@H](NC(=O)CNC(=O)[C@@H](N)CCCNC(=N)N)[C@@H](C)O)C(C)C)C(=O)N[C@@H](CC(C)C)C(=O)N[C@@H](Cc1c[nH]cn1)C(=O)N[C@@H](CC(C)C)C(N)=O` the ThT fluorescence was 3 ± 1% (Microtubule-associated protein tau, PHF6* peptide (MAPT, Homo sapiens, UniProt P10636); fibril formation, ThT fluorescence; 1-fold of peptide, pH 7.4, with: Ac-PHF6* 25 µM, heparin; relative to: untreated).
For `CCCC[C@H](NC(=O)[C@H](CC(=O)O)NC(C)=O)C(=O)N1[C@H](C(=O)N[C@@H](CC(=O)O)C(=O)COC(=O)c2c(C)cccc2C)C[C@@H]2CCCC[C@@H]21`, the kinact/KI was 90000 M⁻¹ s⁻¹ (CASP8; enzyme activity, inhibitor).
Under “inhibition of binding”, `Cc1ccc2oc(=O)cc(Cn3ccnc3)c2c1` is recorded as 67.5 ± 2.68% (ADRA1A (Homo sapiens, UniProt P35348); flow cytometry binding; COS-7; 500 µM, tracer 6.25 nM).
For `CC(=O)N[C@@H](CCC(C)C)C(=O)N[C@@H](CCC(=O)O)C(=O)N[C@@H](C)C(=O)N[C@@H](CC(=O)O)C(=O)COC(=O)c1c(C)cccc1C`, the kinact/KI was 978000 M⁻¹ s⁻¹ (CASP8; enzyme activity, inhibitor).
`Cc1cc(=O)oc2cc(NC(=O)CCCCCCCC(=O)NO)ccc12` has a TΔS° of 19.2 kJ/mol (HDAC8 (Homo sapiens, UniProt Q9BY41); ITC; Tris-HCl buffer; 288 K).
`CC(=O)N[C@@H](CO)C(=O)N[C@H](C(=O)N[C@@H](CCC(=O)O)C(=O)N[C@H](C(=O)N[C@@H](CC(=O)O)C(=O)COC(=O)c1c(C)cccc1C)C(C)C)C(C)(C)C` has a kinact/KI of 758000 M⁻¹ s⁻¹ (CASP8; enzyme activity, inhibitor).
With `O=C(O)c1cc(-c2coc3cc(O)ccc3c2=O)ccc1F` the DHEA metabolism was 0.13 (HSD3B1; [3H]-DHEA conversion; LNCaP; 0.1 µM, normalized to protein, unit not given; relative to: vehicle).
`CC(=O)N[C@@H](CC(C)C)C(=O)N[C@@H](CCC(=O)O)C(=O)N[C@H](C(=O)N[C@@H](CC(=O)O)C(=O)COC(=O)c1c(C)cccc1C)[C@@H](C)OCc1ccccc1` gave a kinact/KI of 628000 M⁻¹ s⁻¹ (CASP8; enzyme activity, inhibitor).
For `Cc1ncsc1-c1ccc(CNC(=O)[C@@H]2C[C@@H](O)CN2C(=O)[C@@H](NC(=O)COCC(C)(COCCOCCOCCNC(=O)C[C@@H]2N=C(c3ccc(Cl)cc3)c3c(sc(C)c3C)-n3c(C)nnc32)COCCOCCOCCNC(=O)C[C@@H]2N=C(c3ccc(Cl)cc3)c3c(sc(C)c3C)-n3c(C)nnc32)C(C)(C)C)cc1`, the cooperativity alpha was 4.3 (BRD4/VHL, BD1 (Homo sapiens, UniProt O60885+P40337); ternary complex binding, SPR multi-cycle kinetics; with: BRD4 bromodomains; relative to: Kd binary over Kd ternary).
With `CC(=O)N[C@H](CCc1ccccc1)C(=O)N[C@@H](CCCC(=O)O)C(=O)N1C[C@H](O)C[C@H]1C(=O)N[C@@H](CC(=O)O)C(=O)COC(=O)c1c(C)cccc1C` the kinact/KI was 12400 M⁻¹ s⁻¹ (CASP10; enzyme activity, inhibitor).
With `Cc1cc(=O)oc2c(F)c(OP(=O)(O)O)c(F)cc12` the kcat was 150 ± 4 s⁻¹ (PTPN11 (Homo sapiens, UniProt Q06124); dephosphorylation, substrate; fully activated enzyme).
`CC(=O)N[C@H](C(=O)N[C@@H](CCCNC(N)=O)C(=O)N[C@@H](CCO)C(=O)N[C@@H](CC(=O)O)C(=O)COC(=O)c1c(C)cccc1C)C1CCCCC1` gave a kinact/KI of 48000 M⁻¹ s⁻¹ (CASP8; enzyme activity, inhibitor).
The hydrolysis of `C[n+]1cn([C@@H]2O[C@H](COP(=O)(O)OP(=O)([O-])OP(=O)(O)O)[C@@H](O)[C@H]2O)c2nc(N)nc(O)c21` is reported as 77.6 ± 1.6% (DCPS; substrate, HPLC; concentration not given, 120 min).

For quick reference, copied from above:
For `Cc1ncsc1-c1ccc(CNC(=O)[C@@H]2C[C@@H](O)CN2C(=O)[C@@H](NC(=O)COCC(C)(COCCOCCOCCNC(=O)C[C@@H]2N=C(c3ccc(Cl)cc3)c3c(sc(C)c3C)-n3c(C)nnc32)COCCOCCOCCNC(=O)C[C@@H]2N=C(c3ccc(Cl)cc3)c3c(sc(C)c3C)-n3c(C)nnc32)C(C)(C)C)cc1`, the cooperativity alpha was 4.3 (BRD4/VHL, BD1 (Homo sapiens, UniProt O60885+P40337); ternary complex binding, SPR multi-cycle kinetics; with: BRD4 bromodomains; relative to: Kd binary over Kd ternary).
`O=c1c(-c2ccc(Cl)c(CN3CCOCC3)c2)coc2cc(O)ccc12` has a DHEA metabolism of 2.55 (HSD3B1; [3H]-DHEA conversion; LNCaP; 0.1 µM, normalized to protein, unit not given; relative to: vehicle).
Under “normalized kinase activity”, `C#CCOC(=O)[C@@]1(C)C=C(C(=O)OC(C)(C)C)C(=O)CC1` is recorded as 1.06 (MAPK1; enzyme activity, D-SENSOR; 0.1829 µM, mean of replicates).
